Assay results of several laboratories.
A part holds a random share of what one study measured. Changes are numbered by the printed parent chain.

Series 1
Target: CCNA1, cyclin fold, Cln2 fusion (human)
Method: yeast growth competition, sequencing
Matrix: yeast
Notes: weak parent motif
Reference: not given
Direction: higher = stronger binding
Parent: SCAPER docking peptide (human); SNARRSLNFGGST; partner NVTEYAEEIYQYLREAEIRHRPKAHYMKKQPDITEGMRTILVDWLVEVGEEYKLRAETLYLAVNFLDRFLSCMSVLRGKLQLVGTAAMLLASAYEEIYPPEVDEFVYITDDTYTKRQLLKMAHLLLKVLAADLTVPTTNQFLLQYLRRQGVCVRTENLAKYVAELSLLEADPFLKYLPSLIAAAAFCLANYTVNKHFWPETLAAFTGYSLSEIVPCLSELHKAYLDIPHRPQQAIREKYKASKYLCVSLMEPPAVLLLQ
`SNARRSHNFGGST [L7H]` — result for “normalised enrichment score”: 0.384.
`HNARRSLNFGGST [S1H]`: “normalised enrichment score” 0.442.
Under “normalised enrichment score”, `SNARRSLNQGGST [F9Q]` is recorded as 0.337.
`WNARRSLNFGGST [S1W]`: “normalised enrichment score” 0.542.
For `RNARRSLNFGGST [S1R]`, “normalised enrichment score” read 0.74.

Series 2
Target: Centromere-binding protein 1, full length, His-tagged (CBF1, Saccharomyces cerevisiae, UniProt P17106, residues 1-351)
Chain of UniProt P17106 (whole entry, looked up): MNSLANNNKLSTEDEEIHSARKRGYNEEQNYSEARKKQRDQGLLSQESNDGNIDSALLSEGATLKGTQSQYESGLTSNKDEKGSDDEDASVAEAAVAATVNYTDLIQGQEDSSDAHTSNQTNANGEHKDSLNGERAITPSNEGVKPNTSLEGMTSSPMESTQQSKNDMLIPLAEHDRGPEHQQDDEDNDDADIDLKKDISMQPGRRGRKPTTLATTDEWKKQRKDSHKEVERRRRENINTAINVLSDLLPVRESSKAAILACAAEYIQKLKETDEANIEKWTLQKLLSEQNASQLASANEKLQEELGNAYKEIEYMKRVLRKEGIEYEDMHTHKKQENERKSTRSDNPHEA
Method: competition protein-binding microarray
Form: double-stranded DNA, one strand shown
Matrix: in vitro
Tested at: 2 µM
Notes: whole 60-bp probe, lowest competitor level
With: Pho4 competitor, 0.05 µM
Direction: higher = stronger binding
`ATAAAAGAATGCCATCACGTGTTTCCAATCCATTCGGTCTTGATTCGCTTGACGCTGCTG` has a fluorescence intensity of 3400 a.u.
With `TTATATCAACCGTATGGCGTGCTTTAGCTGCAATAAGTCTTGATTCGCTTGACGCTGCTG` the fluorescence intensity was 84 a.u.
With `CGGGGTTAAGTTTGCTTCGTGGGTGGCTTGCAGCAGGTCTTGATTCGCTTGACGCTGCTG` the fluorescence intensity was 62.6 a.u.
`CATACCCAACCTTGGGCCGTGGGTGAAGATATTTGTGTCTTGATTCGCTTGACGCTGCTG` gave a fluorescence intensity of 49.3 a.u.
With `CTAACGAAGGTTTTTCACGTGATGTACAAGCCAAGTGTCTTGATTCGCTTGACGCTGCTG` the fluorescence intensity was 3900 a.u.
With `GTTACAGATCTCCTACACGTTACATGTTCCAAAGTAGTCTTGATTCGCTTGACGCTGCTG` the fluorescence intensity was 95.4 a.u.
`CGTCCTAGTGATTGGGGGGTGGGTGCCATGAGGAAGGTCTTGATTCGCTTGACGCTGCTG` has a fluorescence intensity of 126 a.u.
`CGGTGGTATAGAAATGACGTGCCAGGCATAAGGTGAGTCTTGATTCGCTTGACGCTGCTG` has a fluorescence intensity of 56.7 a.u.

Series 3
Target: RNA binding protein fox-1 homolog 2, RRM domain, GST-SBP tag (RBFOX2, Homo sapiens, UniProt O43251-10, residues 100-194)
Method: RNA Bind-n-Seq
Form: RNA
Matrix: in vitro
Tested at: 365 nM
Notes: natural RNA segment, single round, ends assumed
Reference: no-protein control
Direction: higher = stronger binding
Target sequence (chain): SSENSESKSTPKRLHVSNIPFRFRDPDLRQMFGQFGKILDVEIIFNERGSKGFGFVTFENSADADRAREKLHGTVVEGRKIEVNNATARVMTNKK
`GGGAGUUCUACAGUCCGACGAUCACAACAAAAAAGAAUGUUUUGGUAUUGGAGAAGGGAUGGUCAGUUAGCCUGUCUGUCACACGACGGAAUGGAUACUGGGCCCGGGGACCACUUUCAUACUCACGUCCUCAUGGAAUUCUCGGGUGCCAA` — result for “RBNS enrichment (R)”: 0.696.
`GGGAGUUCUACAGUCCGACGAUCCAACACUUUCAGCAGACUAGCCUCUCCUUAUCUCACAGAUCACAAGCACCCCUAGAUAGUGUGAUUCUGUCAGAUAGCAUUUAUGCAAAAAUCUAUGAAGUUAAAAGAUCUGGAAUUCUCGGGUGCCAA`: “RBNS enrichment (R)” 0.701.
`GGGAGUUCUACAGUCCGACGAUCUAAUAAAAUGCUAACCUGCCCAGGGUUCCUAUUACUGUGGGAGGGGUCCCCUGGGCCAGCCAGCGAUUCUACUCCCUCAACGUGUAUCUCUCCUUCCCUCCCACCACCACUGGAAUUCUCGGGUGCCAA`: “RBNS enrichment (R)” 0.564.
`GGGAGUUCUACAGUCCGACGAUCCUUAAUUUUCUUAAAACUAUUUUUAAUGAUCCACUAAACAAAGCAGGGGAUCCUGAAGCUGAUAUAAAUAAGUCUAGCUCUAUAAUCCCCAAGUUCUAAAAGUUAUGGUUUGGAAUUCUCGGGUGCCAA` — result for “RBNS enrichment (R)”: 0.397.
For `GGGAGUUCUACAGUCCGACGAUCUGCAGAUGGAUCCCAGAACCUGCAGCUACCACGGACACCAGGAGGCCCUCGGGCCACUUGGUGGAAGGACCCUAAGCACACUGUUCAUGAAGAACACAGGGAUAAAGCAAUGGAAUUCUCGGGUGCCAA`, “RBNS enrichment (R)” read 0.327.
`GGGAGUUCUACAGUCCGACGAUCUGAUGUUUGAUCGGAUGAAGAACCAGAACCAGAAGAGAGGAUGCACGGUCCUCGCUAGGGGCCCCAUGUCACCUGCAUCAGGACUAUUGGCACUCACUAGCUGCCCCUACUGGAAUUCUCGGGUGCCAA`: “RBNS enrichment (R)” 2.44.
For `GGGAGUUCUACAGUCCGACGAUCUCACUCUGCUGUCAGGUACAGGUCAAGUUCUUGGGGCCCACUUCUGAGUUUAGAAGACCUAUUACAAAAAGUGAAGAACUAGACUGUGGGAAAAUAAAUGGCUUUUGACUUGGAAUUCUCGGGUGCCAA`, “RBNS enrichment (R)” read 0.354.
Under “RBNS enrichment (R)”, `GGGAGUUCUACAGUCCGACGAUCCUUUAGUUUGUUCACAGGGAGGCAAAGCUGACAUGAACCUUUUGUCGUGGGACUUCAGGCCACAUUGGCUUGAAGGCAUUCGUUUCCUUCUGGGGUGGGGACAGGCCCUCUGGAAUUCUCGGGUGCCAA` is recorded as 0.699.

Single results of other studies
`PhoQ, residues 284 288 289 292 302 303 SSTLLI` has a fold induction of 8.61 (PhoP, residues 12 14 15 18 19 LHHSG (Escherichia coli, UniProt P23836); Sort-seq, item: YFP reporter; E. coli; PhoQ-PhoP variant library, with: 10 µM Mg2+; reference: high Mg2+ state, higher = stronger signaling).

Some of these lines once more (series 3):
`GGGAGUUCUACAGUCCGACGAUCUGAUGUUUGAUCGGAUGAAGAACCAGAACCAGAAGAGAGGAUGCACGGUCCUCGCUAGGGGCCCCAUGUCACCUGCAUCAGGACUAUUGGCACUCACUAGCUGCCCCUACUGGAAUUCUCGGGUGCCAA`: “RBNS enrichment (R)” 2.44.
Under “RBNS enrichment (R)”, `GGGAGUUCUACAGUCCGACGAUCCUUUAGUUUGUUCACAGGGAGGCAAAGCUGACAUGAACCUUUUGUCGUGGGACUUCAGGCCACAUUGGCUUGAAGGCAUUCGUUUCCUUCUGGGGUGGGGACAGGCCCUCUGGAAUUCUCGGGUGCCAA` is recorded as 0.699.
